Experimental data collected from several papers.
Numbered parts are unrelated; each lists some results of a single study. Changes are numbered by the printed parent chain.

Set 1
Molecule: PhoQ, residues 284 288 289 292 302 303 SLGVVW
Method: Sort-seq
Measured: YFP reporter
Matrix: E. coli
Notes: PhoQ-PhoP variant library
Together with: 10 µM Mg2+
Baseline: high Mg2+ state
Direction: higher = stronger signaling
Measurement: fold induction
target = PhoP, residues 12 14 15 18 19 HHYTI (Escherichia coli, UniProt P23836); value = 9.98
target = PhoP, residues 12 14 15 18 19 AYFRS (Escherichia coli, UniProt P23836); value = 29.7
target = PhoP, residues 12 14 15 18 19 SFCSL (Escherichia coli, UniProt P23836); value = 29.4

Set 2
Target: RNA binding protein fox-1 homolog 2, RRM domain, GST-SBP tag (RBFOX2, Homo sapiens, UniProt O43251-10, residues 100-194)
Method: RNA Bind-n-Seq
Form: RNA
Matrix: in vitro
Tested at: 365 nM
Notes: natural RNA segment, single round, ends assumed
Baseline: no-protein control
Direction: higher = stronger binding
Measurement: RBNS enrichment (R)
Constant ends, left off below: GGGAGUUCUACAGUCCGACGAUC … UGGAAUUCUCGGGUGCCAA
Construct (chain): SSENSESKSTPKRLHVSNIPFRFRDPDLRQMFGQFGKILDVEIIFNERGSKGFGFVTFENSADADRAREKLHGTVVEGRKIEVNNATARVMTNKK
Strand = GCCCUUGAUAAAUAUCAACUUUAUUGAAUUGUACCUUUUAUUAAAAAGGAAAUACUUCAAAACCUUGUUCAUUACCUAGACCAGUUAUUAUCUGUCUGGACAUAGUUGUG; value = 0.331
Strand = AUAAUUGUCAAAAACCAGAAUUAGGUCAAGUUCAUAGUUUCUGUAAUUGGCUUUUGAAUCAAAGAAUAGGGAGACAAUCUAAAAAAUAUCUUAGGUUGGAGAUGACAGAA; value = 0.4
Strand = UUUAACUCCAGAAUAUGGUGAUACAGUUUAUGUUAAGAAACAUAUUUUAAUUUAUUAUGCCAUGAAUUUAUAAACAUUUAAUAUAAAACAUUAUAACAUUUGCUGUUUUA; value = 1.3
Strand = CGUACUGAAAUAGGAAGUCAUGCUCUUCCCACCCUCCACCCACCAGAGUGGAACCCGCUGCAAAAUCCCCAGCCUUAAUUCUUGCUUCAGGACCCAGACCGGUGUCUUGC; value = 0.541
Strand = GAAUUCCCUUUUGUGCCAGAUGCCAGUACUGUCUGCCCAUUGGCUCCAGGGGCUGUAUGGGCAGAUUCAGUCUCCAGAGGGUAUUCAGAUCAUCUGCUUCUUUGAAGGAG; value = 0.227
Strand = CCCUCAUCGUGGUCUGUGCCAUGUCCCGUCUCUAUGGUGGUUGAGGAGAAAGGCGGGGAAGCUUCCUCAGCCUUGCAGAUAUGUGUGGCAUUUACUAGCCAGAGCUCUGA; value = 0.437
Strand = CCACUGCCAAAGGCAGAAUUUAAACUAGGGGCUGAGGGAUAGCUCCGAGUAAUGUCCAAUGCUGGGAGUUGGUCAGUUCAGAACCAAUUGUGUCGGUAAAAAACCAAGGG; value = 0.785
Strand = UUUCCUCUGAUCCACUGUCCAAGUUGGGUCACAAACAUGUCACUCAUGCAUGCCUGCACUCCAGAGUCAGGUGCCAAGCUUGCUUGUCCUUCCCUGCCUCCAGGUCAGGG; value = 0.922
Strand = AUGGCCCAGCAGGCAGGCACUGUGGCCCUUCUGUCCACCAGACCCACCUGGAGCCCGCUUCAAGCUCUCUGUUGCGCUCCCGCAUUUCUCAUGCUUCUUCUCAUGGGGUG; value = 0.208
Strand = AUGCUGGUAAAGAAAAGGGAUUCAACUGUCUCUUUUCCAAAUAAAAAAAAAGUCAAAAUUUCAAGUGAGAGAAAAUGACACCCCCAACUUUUACCAGUUCUUCCUCACCU; value = 0.343
Strand = GCCUUUCCAGGUUUCCUUUAGCUUCCCUGCUUCCUGGGAAUCAGGAGCCUGGACACUGCCAUCUCUAGAGCAGAGUGGAGGCCUGGACUCCCUUUGCUCACUCCAUUCGG; value = 0.294
Strand = UGCAGAAUAAUUCAAUUGAAUAUCCAUCACUUAAAUACAGUGACAGGACAGCAACUUCAGGGAUCUGUAAAGAUCAUUUAAAUGGAGUGCUCAUCUCAUUGAGGAGCAGA; value = 0.268

Set 3
Target: CCNB2, cyclin fold, Cln2 fusion (human)
Method: yeast growth competition, sequencing
Matrix: yeast
Notes: strong parent motif
Baseline: not given
Direction: higher = stronger binding
Measurement: normalised enrichment score
Starting sequence: E2F1 docking peptide (human); PPVKRRLDFETDH
Change = L7V; value = 0.317
Change = T11A; value = 3.4
Change = V3S; value = 0.604
Change = K4E; value = 1.18
Change = E10Q; value = 2.63
Change = R5N; value = 0.708
Change = D8E; value = 3.16
Change = R6M; value = 2.43
Change = P2G; value = 3.59
Change = D12Q; value = 3.25
Change = D12L; value = 3.16
Change = D12G; value = 3.63
Change = R6S; value = 1.68
Change = V3N; value = -0.22
Change = R5Q; value = 2.01

Set 4
Target: Ras GTPase-activating protein-binding protein 1, RRM domain (G3BP1, Homo sapiens, UniProt Q13283)
Chain of UniProt Q13283 (whole entry, looked up): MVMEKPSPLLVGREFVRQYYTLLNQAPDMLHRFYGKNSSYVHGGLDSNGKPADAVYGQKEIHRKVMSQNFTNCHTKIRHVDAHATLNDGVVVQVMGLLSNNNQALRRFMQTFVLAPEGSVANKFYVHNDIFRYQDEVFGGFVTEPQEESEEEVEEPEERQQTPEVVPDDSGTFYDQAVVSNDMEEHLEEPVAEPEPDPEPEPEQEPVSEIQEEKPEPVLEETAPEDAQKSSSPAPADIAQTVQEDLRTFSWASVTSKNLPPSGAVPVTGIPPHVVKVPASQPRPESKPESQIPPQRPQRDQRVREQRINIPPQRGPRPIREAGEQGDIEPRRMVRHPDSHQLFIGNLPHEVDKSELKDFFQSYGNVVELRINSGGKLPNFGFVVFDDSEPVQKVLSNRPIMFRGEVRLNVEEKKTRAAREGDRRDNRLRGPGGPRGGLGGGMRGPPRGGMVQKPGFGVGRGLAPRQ
Method: RNA Bind-n-Seq
Form: RNA
Matrix: in vitro
Tested at: 1 µM
Notes: whole 134-nt RNA, ends assumed
Together with: 150 mM KCl
Baseline: input library
Direction: higher = stronger binding
Measurement: log2 enrichment
Constant ends, left off below: GGGAGUUCUACAGUCCGACGAUC … UGGAAUUCUCGGGUGUCAAGG
Strand = AAGUCCUGUGCUACACAUCGUAUGUACCGAAUCGGGAAAGGGUUUGGGAAAAAGGGAAAGUAUUAUGUUACGCCGUUCGGAUCUGCACUU; value = 0.418
Strand = CCUGUGCUACACAUCGUAUGUACCGAAUCGGGGUUUUUGGGGAAAAAAAGGGGUUUGGGGAAAGUAUUAUGUUACGCCGUUCGGAUCUGC; value = 0.675
Strand = AAGUCCUGUGCUACACAUCGUAUGUACCGAAUCGGGCCCCGGCCCCGGCCCCGGGGAAAGUAUUAUGUUACGCCGUUCGGAUCUGCACUU; value = -1.25
Strand = UCCUCAAGUCCUGUGCUACACAUCGUAUGUACCGAAUCGGAGGGAGGAGGGAAAGUAUUAUGUUACGCCGUUCGGAUCUGCACUUCCAGC; value = -0.233
Strand = AAGUCCUGUGCUACACAUCGUAUGUACCGAAUCGGGGAAAGGAAAGGGGAAAGGGGAAAGUAUUAUGUUACGCCGUUCGGAUCUGCACUU; value = 0.197
Strand = AAGUCCUGUGCUACACAUCGUAUGUACCGAAUCGGGGUUUUUGGGGUGGGGAGGGGAAAGUAUUAUGUUACGCCGUUCGGAUCUGCACUU; value = 0.788
Strand = UCCUGUGCUACACAUCGUAUGUACCGAAUCGGAAAAAAGGAAAAAAGGGAAAAAAGGGGAAAGUAUUAUGUUACGCCGUUCGGAUCUGCA; value = 0.0107
Strand = GCAGGAAGUAAAAACAAAUGGAAAUGCUUCGGAUAGUGGCAGGGGUGGCGGUUGCUAAGGAAAGGGUGGGAUGGGAGUGGGUAAAGAGUU; value = 1.18
Strand = CUGUGCUACACAUCGUAUGUACCGAAUCGGGAAAAAAAGGGAAAAAAAGGAAAAAAAGGGGAAAGUAUUAUGUUACGCCGUUCGGAUCUG; value = 0.153

For quick reference, copied from above (set 4):
Strand = GCAGGAAGUAAAAACAAAUGGAAAUGCUUCGGAUAGUGGCAGGGGUGGCGGUUGCUAAGGAAAGGGUGGGAUGGGAGUGGGUAAAGAGUU; value = 1.18
Strand = AAGUCCUGUGCUACACAUCGUAUGUACCGAAUCGGGCCCCGGCCCCGGCCCCGGGGAAAGUAUUAUGUUACGCCGUUCGGAUCUGCACUU; value = -1.25
Strand = AAGUCCUGUGCUACACAUCGUAUGUACCGAAUCGGGGAAAGGAAAGGGGAAAGGGGAAAGUAUUAUGUUACGCCGUUCGGAUCUGCACUU; value = 0.197
Strand = UCCUGUGCUACACAUCGUAUGUACCGAAUCGGAAAAAAGGAAAAAAGGGAAAAAAGGGGAAAGUAUUAUGUUACGCCGUUCGGAUCUGCA; value = 0.0107
